Measurements pooled from the literature.
A part holds a random share of what one study measured. Positions count from the first letter of the parent shown.
Chain of UniProt Q8N2K1 (whole entry, looked up): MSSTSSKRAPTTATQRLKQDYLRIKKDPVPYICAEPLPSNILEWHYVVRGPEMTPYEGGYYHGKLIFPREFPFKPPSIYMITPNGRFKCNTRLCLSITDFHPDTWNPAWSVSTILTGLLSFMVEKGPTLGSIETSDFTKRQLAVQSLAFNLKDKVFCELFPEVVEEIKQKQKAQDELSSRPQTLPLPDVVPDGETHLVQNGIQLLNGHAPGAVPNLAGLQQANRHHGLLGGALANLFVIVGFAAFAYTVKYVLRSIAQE
Chain of UniProt Q9Y2X8 (whole entry, looked up): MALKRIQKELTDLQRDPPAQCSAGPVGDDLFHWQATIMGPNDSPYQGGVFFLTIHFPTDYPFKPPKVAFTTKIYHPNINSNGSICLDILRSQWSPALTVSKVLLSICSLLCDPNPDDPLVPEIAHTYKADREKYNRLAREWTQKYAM
Chain of UniProt Q7Z7E8 (whole entry, looked up): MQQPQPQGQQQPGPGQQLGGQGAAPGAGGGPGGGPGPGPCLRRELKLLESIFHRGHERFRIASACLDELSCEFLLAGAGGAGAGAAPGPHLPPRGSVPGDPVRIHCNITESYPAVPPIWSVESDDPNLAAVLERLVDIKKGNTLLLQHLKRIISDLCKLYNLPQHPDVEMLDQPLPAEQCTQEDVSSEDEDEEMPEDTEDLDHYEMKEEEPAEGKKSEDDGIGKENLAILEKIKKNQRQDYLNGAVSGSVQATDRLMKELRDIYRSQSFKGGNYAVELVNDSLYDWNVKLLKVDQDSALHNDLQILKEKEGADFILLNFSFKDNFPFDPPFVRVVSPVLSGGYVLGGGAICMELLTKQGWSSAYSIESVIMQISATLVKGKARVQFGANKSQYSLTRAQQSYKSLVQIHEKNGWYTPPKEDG
Chain of UniProt P63146 (whole entry, looked up): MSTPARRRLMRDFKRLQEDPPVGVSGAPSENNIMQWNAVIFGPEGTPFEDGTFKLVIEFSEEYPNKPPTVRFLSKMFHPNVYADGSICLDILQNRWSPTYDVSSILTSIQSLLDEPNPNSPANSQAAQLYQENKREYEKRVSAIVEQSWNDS
Chain of UniProt P51668 (whole entry, looked up): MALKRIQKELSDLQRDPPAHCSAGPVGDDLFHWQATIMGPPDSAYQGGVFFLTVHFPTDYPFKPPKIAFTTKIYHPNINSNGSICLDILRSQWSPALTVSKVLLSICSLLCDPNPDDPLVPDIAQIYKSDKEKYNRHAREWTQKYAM
Chain of UniProt P62837 (whole entry, looked up): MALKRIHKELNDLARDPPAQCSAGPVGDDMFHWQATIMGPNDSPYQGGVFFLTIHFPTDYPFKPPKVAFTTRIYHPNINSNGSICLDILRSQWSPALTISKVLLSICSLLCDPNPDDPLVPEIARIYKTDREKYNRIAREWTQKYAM
Chain of UniProt Q712K3 (whole entry, looked up): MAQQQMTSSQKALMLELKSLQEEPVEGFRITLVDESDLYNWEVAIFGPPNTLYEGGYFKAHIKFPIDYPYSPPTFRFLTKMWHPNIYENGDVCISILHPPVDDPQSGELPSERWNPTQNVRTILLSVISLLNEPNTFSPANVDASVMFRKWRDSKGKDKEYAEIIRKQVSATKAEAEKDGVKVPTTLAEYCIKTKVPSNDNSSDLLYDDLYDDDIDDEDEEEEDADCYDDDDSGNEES
Chain of UniProt Q9H832 (whole entry, looked up): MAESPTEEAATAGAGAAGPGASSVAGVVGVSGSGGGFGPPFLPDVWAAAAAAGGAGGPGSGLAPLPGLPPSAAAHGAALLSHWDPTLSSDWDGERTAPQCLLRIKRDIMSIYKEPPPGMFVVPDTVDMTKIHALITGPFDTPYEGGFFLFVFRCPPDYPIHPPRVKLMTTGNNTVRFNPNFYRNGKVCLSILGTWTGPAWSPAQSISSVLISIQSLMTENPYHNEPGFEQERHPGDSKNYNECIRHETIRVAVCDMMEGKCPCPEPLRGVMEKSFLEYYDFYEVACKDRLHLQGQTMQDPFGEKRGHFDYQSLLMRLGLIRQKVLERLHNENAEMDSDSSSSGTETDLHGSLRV

Series 1
Target: RING finger protein unkempt homolog, zinc fingers 1-6, GST-SBP tag (UNK, Homo sapiens, UniProt Q9C0B0, residues 30-357)
Chain of UniProt Q9C0B0 (30-357, looked up): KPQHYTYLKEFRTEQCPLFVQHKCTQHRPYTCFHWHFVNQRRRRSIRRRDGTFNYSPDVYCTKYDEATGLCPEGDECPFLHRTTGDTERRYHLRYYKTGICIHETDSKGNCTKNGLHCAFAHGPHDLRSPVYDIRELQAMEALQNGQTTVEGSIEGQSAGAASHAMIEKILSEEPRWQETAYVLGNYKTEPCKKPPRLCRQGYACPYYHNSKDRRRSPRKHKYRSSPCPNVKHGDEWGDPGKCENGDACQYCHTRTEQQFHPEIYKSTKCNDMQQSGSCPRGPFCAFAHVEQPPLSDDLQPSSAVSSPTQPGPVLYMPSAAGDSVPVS
Method: RNA Bind-n-Seq
Form: RNA
Medium: in vitro
Tested at: not given
Notes: RNA with constant flanks, ends assumed
Baseline: input RNA pool
Direction: higher = stronger binding
All sequences stand within: GGGAGUUCUACAGUCCGACGAUC … CAACAGAGGAUUGAGCAUCA
`AUAUUGGAUGCAGUGUAACACUAUCCAAGGCAGUGACUUCAGCUUUAUAUACAUAUAAAAUACCGUCCGUUUUAAAAUUAUUGACAUUUAUUUAAACUUUUAGAUUGGAUUGUUUGCUAU` has a bound/input enrichment of 1.81 ratio.
`ACCCCCAUGGUCCCUAUCUGUAGUCAGACUGUGCUGGCUGGGUCUCUGCAGGGAACCUGUUACCGCAGGUUUGUGGUGACCUUGGAGGGAGGGUCUGCCAGCAGAGAAUACAGUGCGCUU` gave a bound/input enrichment of 0.135 ratio.
`GCAGAGAUUCAUCACAGUUGGACUUCAGGGGUAGGGACAUACAUUCUGGGGAUUUUCGGGACCGAGAAGGACCACCUAUGGACUAUAGGGGUGGAGAUGGUACUUCUAUGGAUUAUAGAG` gave a bound/input enrichment of 0.722 ratio.
For `CAGUCAUGGAGAAAAACAUAUUAAAAUAAUUUCAUGGCAUUGAUGUUAAUUCUAGUCUAUCCGUUUUAUAAAAGUUAGGAUUCUUAUUUAGGAACAACAGGAAAUGACUGUUAAGGAGAA`, the bound/input enrichment was 6.63 ratio.
The bound/input enrichment of `GUUUGGCUAAAGCCAAAGAACAGCUUUUCAUAGCCACAUUUUGUAAUUCUUGAUAAGUGACCGCUUACCAAGCUGUCUUCAUUAAAAACAAAUUUGUCCUUAGCCCUACUUUUUCUCAAA` is reported as 0.559 ratio.
`GCUCAGAGGGCCAUUAGUUCUGUUCCAGUUGGUAGACAACCCAUCAUCAUGCAGAGUACCCGCAAAUUUAACUUUACACCAGGGCGACCUGGAGUUCAGAAUGGUGGUGGUCAGUCUGAU` has a bound/input enrichment of 0.203 ratio.
With `GGAUCUUGUGACUGGCUUUGCUUGAUUGGUCAUUGGUAUCUCAACAAGCAUGGAGAUGAGAUCCGAAGUUUUGACAUCAACAAGUAUCAAGCAGAAAAAACCCUGGCCCAGAGUAUCCUG` the bound/input enrichment was 0.111 ratio.
The bound/input enrichment of `AGACCUUUGGGUACAACCAAAGCUGCAGGAUACAAAGUCAGCCCAGGGAGACCUCCAGGCCGCAUUAAAGCUCUGUCCCGCCUUGCAGAUCUUGGCUAUGGCUGUGGCACUGCUGCCUUU` is reported as 0.124 ratio.
`GAAGAAAAUGGCGAGGACAGAGAUACAGCAAGUGAAAAAGAAUUAAAUGGAGAUUCUGAUUCCGAUCCUGAAAAUGAAAGUGAAGAAGAAUGAAGACAGCAAAGCAAGCCGGUCAAACUA` has a bound/input enrichment of 0.433 ratio.
`AUUUCCCCAAAAGUUACGAGUUUAUUGGUGGUCCCUGGGAGCUCAGAUGUAAAAGACAAAGUCCGCUCGGAUCUCCCACAGAUAGGGCCACCCUUGACCUCUACACCCCAACUACAGGCU` has a bound/input enrichment of 0.158 ratio.
For `ACAUUUGAUGAGCUUCGAGAAACCAAAACCUCUGAGUACUUUAGUCUGUCCCACCAGCAGUCCGACUACAGAAUAUUGCUGAUGGAUGAAGAUCAAGACCGGAUAUAUGUGGGGAGCAAA`, the bound/input enrichment was 0.255 ratio.

Series 2
Sequence: KPDKMEETLTCIICQDLLHDCVSLQPCMHTFCAACYSGWMERSSLCPTCRCPVERICKNH (CHFR RING domain (UniProt Q96EP1))
Method: yeast two-hybrid
Medium: yeast
Notes: mostly zero background
Baseline: not given
Direction: higher = stronger interaction
For UBE2Q1 UBC core domain (UniProt Q7Z7E8): “lacZ reporter activity” read 0.
For UBE2D4 UBC core domain (UniProt Q9Y2X8): “lacZ reporter activity” read 8460.
For UBE2D2 UBC core domain (UniProt P62837): “lacZ reporter activity” read 10400.
UBE2J2 UBC core domain (UniProt Q8N2K1) — “lacZ reporter activity”: 0.
For UBE2B UBC core domain (UniProt P63146): “lacZ reporter activity” read 0.
UBE2R2 UBC core domain (UniProt Q712K3) — “lacZ reporter activity”: 0.
UBE2D1 UBC core domain (UniProt P51668) — “lacZ reporter activity”: 9840.
The “lacZ reporter activity” was 0 (UBE2I UBC core domain (UniProt P63279)).
BIRC6 UBC core domain (UniProt Q9NR09) — “lacZ reporter activity”: 0.
For UBE2Z UBC core domain (UniProt Q9H832): “lacZ reporter activity” read 0.

Series 3
Target: CCNB1, cyclin fold, Cln2 fusion (human)
Method: yeast growth competition, sequencing
Medium: yeast
Notes: weak parent motif
Baseline: not given
Direction: higher = stronger binding
Parent: CDC25A docking peptide (human); PPHRRRLLFACSP
`VPHRRRLLFACSP [P1V]`: “normalised enrichment score” -0.111.
`PPHRRDLLFACSP [R6D]` — result for “normalised enrichment score”: 0.11.
For `PPHRRRLLFACST [P13T]`, “normalised enrichment score” read 0.58.
For `PPHRRCLLFACSP [R6C]`, “normalised enrichment score” read 0.00797.
Under “normalised enrichment score”, `PPHRRRLLFFCSP [A10F]` is recorded as 0.815.
For `PPHRRRLLFAWSP [C11W]`, “normalised enrichment score” read 0.253.
`PPHRMRLLFACSP [R5M]`: “normalised enrichment score” 0.808.
Under “normalised enrichment score”, `PPHTRRLLFACSP [R4T]` is recorded as 0.306.
`PPHRRRLLDACSP [F9D]` — result for “normalised enrichment score”: -0.285.
`PPHRRRLLFAFSP [C11F]`: “normalised enrichment score” 0.766.
`PPHRRRLLFWCSP [A10W]`: “normalised enrichment score” 0.293.
`PPHMRRLLFACSP [R4M]` — result for “normalised enrichment score”: 0.0896.
`PPHRRRLLFACGP [S12G]`: “normalised enrichment score” 0.989.
`PPHRRRLLFACSE [P13E]`: “normalised enrichment score” 0.128.
`PPHRRRLLFANSP [C11N]`: “normalised enrichment score” -0.237.
Under “normalised enrichment score”, `PPHRRRLCFACSP [L8C]` is recorded as -0.0383.
For `PPHSRRLLFACSP [R4S]`, “normalised enrichment score” read 0.227.
`PPHRRSLLFACSP [R6S]`: “normalised enrichment score” 0.448.
`PPHRRRLLFCCSP [A10C]`: “normalised enrichment score” 0.0948.
`PPHRRRLHFACSP [L8H]` — result for “normalised enrichment score”: 0.546.
`PPHRRHLLFACSP [R6H]` — result for “normalised enrichment score”: 0.193.
`PPHRRRLQFACSP [L8Q]`: “normalised enrichment score” -0.266.

Series 4
Target: CREB3L2, bZIP domain (human)
Method: DHFR protein complementation
Medium: yeast
Notes: single substitutions, most at no-binding floor
Baseline: wild-type JUN-FOS pair
Direction: higher = stronger binding
Parent: JUN, bZIP domain (human); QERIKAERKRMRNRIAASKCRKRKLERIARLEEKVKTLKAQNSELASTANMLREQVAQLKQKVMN; partner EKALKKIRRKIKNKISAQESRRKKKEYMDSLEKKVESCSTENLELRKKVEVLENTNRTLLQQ
`V35P` gave a binding fitness of -1.5 natural log.
`N42E` gave a binding fitness of -1.44 natural log.
`E54S` has a binding fitness of -1.52 natural log.
The binding fitness of `I28D` is reported as -1.47 natural log.
With `L45C` the binding fitness was -1.47 natural log.
`M51P` gave a binding fitness of -1.54 natural log.
For `V35C`, the binding fitness was -1.48 natural log.
`R53Q` has a binding fitness of -1.18 natural log.
The binding fitness of `L38E` is reported as -1.36 natural log.
The binding fitness of `L31K` is reported as -1.46 natural log.
With `S47D` the binding fitness was -1.41 natural log.
`Q41M` has a binding fitness of -1.4 natural log.
For `L45I`, the binding fitness was -1.51 natural log.
For `L52A`, the binding fitness was -1.47 natural log.
For `L52K`, the binding fitness was -1.5 natural log.
`R30Q` has a binding fitness of -1.52 natural log.

Series 5
Target: Protein C-ets-1 (ETS1, Homo sapiens, UniProt P14921, residues 1-441, Y397A, full length assumed)
Method: protein-binding microarray
Form: double-stranded DNA, one strand shown
Medium: in vitro
Tested at: not given
Notes: k-mer, scored over probes, only values ≥0.25
Direction: higher = stronger binding
Construct (chain): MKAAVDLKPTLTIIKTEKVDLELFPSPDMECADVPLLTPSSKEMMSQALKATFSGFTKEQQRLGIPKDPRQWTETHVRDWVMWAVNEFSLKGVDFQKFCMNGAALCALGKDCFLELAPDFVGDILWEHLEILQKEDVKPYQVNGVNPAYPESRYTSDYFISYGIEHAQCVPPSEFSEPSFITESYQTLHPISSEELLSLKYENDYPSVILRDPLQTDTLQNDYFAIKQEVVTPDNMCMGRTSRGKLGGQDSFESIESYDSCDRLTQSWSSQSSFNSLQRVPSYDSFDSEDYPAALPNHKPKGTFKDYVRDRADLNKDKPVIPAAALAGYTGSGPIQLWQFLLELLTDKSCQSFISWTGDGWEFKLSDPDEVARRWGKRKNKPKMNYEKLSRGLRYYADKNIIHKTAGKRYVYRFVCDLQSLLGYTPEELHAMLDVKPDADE
The E-score of `AAGTGCCA` is reported as 0.269.
The E-score of `ATATTTGC` is reported as 0.25.
With `CCGCCACA` the E-score was 0.281.
The E-score of `GCGCCACA` is reported as 0.266.
For `ACCGGAAC`, the E-score was 0.335.
The E-score of `CACAAAAC` is reported as 0.276.
`CTGTTATA` gave an E-score of 0.256.
The E-score of `CGTATACA` is reported as 0.284.
The E-score of `CATCCGGC` is reported as 0.435.
The E-score of `ACAAACCC` is reported as 0.272.
The E-score of `ACAATAGT` is reported as 0.274.
`CGGGTATA` has an E-score of 0.32.
`ACGTCCGG` has an E-score of 0.33.
`TCGTGCAA` has an E-score of 0.255.
`GCCGCCCC` has an E-score of 0.325.
For `TACAAAAA`, the E-score was 0.262.
`AGCTTCCG` gave an E-score of 0.337.
With `ATACGACA` the E-score was 0.3.
The E-score of `GCGGAAGC` is reported as 0.388.
With `CAATTGCC` the E-score was 0.331.
`GGAGGGGA` gave an E-score of 0.325.
`CATGTCGG` has an E-score of 0.256.

Series 6
Target: ABI1, truncated, D143A, DHFR fusion (Arabidopsis thaliana)
Method: DHFR PCA, deep sequencing
Medium: yeast
Notes: methotrexate growth selection, single substitutions
Together with: (+)-ABA 0.0091 µM
Baseline: wild-type fitted maximum
Direction: higher = stronger binding
Parent: PYL1, truncated, DHFR fusion (Arabidopsis thaliana); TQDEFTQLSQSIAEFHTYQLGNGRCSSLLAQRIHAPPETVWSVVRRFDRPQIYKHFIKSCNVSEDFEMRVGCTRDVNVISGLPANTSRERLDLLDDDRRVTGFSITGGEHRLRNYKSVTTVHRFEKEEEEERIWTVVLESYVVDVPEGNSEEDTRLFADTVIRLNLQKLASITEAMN
For `T6A`, “relative binding score” read 46.8%.
`E67P` — result for “relative binding score”: 5.54%.
`I133S` — result for “relative binding score”: 43.7%.
`Q10W` — result for “relative binding score”: 2.44%.
For `H34I`, “relative binding score” read 4.62%.
`V40R`: “relative binding score” -2.07%.
`K54T` — result for “relative binding score”: 2.33%.
`I33T`: “relative binding score” 1.65%.
Under “relative binding score”, `G102L` is recorded as -8.11%.
`S104E`: “relative binding score” -2.18%.
`L20P`: “relative binding score” 32.9%.
`T39W` — result for “relative binding score”: -3.09%.
`D153N`: “relative binding score” 5.94%.
Under “relative binding score”, `C72I` is recorded as 6.08%.
Under “relative binding score”, `E139V` is recorded as 5.76%.
Under “relative binding score”, `R24W` is recorded as 2.55%.
For `E109P`, “relative binding score” read -2.51%.
